Experimental data gathered from unrelated publications.
Each numbered part is a random draw from the data of one study; scales do not carry over between parts.
Sequence of UniProt P11362 (whole entry, looked up): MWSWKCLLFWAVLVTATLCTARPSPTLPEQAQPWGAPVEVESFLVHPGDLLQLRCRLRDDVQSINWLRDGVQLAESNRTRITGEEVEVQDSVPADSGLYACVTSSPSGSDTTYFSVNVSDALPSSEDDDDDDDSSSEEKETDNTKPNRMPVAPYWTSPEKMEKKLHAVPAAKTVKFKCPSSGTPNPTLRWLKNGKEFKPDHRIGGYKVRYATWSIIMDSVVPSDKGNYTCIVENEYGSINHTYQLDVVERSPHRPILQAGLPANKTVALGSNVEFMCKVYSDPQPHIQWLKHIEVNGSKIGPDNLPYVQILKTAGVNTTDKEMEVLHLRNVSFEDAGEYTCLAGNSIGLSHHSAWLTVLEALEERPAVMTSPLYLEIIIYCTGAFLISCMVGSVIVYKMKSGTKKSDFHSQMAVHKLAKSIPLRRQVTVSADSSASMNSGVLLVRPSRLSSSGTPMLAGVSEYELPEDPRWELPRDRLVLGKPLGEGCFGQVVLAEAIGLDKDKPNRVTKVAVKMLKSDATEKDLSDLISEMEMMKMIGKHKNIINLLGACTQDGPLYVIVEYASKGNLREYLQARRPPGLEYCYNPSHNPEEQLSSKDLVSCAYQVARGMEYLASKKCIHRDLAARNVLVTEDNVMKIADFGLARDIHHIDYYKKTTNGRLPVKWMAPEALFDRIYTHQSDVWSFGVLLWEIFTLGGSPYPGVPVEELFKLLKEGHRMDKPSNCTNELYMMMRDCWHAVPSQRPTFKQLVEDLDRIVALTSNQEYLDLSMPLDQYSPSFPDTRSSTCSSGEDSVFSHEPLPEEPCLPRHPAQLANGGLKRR
Sequence of UniProt Q96PY6 (whole entry, looked up): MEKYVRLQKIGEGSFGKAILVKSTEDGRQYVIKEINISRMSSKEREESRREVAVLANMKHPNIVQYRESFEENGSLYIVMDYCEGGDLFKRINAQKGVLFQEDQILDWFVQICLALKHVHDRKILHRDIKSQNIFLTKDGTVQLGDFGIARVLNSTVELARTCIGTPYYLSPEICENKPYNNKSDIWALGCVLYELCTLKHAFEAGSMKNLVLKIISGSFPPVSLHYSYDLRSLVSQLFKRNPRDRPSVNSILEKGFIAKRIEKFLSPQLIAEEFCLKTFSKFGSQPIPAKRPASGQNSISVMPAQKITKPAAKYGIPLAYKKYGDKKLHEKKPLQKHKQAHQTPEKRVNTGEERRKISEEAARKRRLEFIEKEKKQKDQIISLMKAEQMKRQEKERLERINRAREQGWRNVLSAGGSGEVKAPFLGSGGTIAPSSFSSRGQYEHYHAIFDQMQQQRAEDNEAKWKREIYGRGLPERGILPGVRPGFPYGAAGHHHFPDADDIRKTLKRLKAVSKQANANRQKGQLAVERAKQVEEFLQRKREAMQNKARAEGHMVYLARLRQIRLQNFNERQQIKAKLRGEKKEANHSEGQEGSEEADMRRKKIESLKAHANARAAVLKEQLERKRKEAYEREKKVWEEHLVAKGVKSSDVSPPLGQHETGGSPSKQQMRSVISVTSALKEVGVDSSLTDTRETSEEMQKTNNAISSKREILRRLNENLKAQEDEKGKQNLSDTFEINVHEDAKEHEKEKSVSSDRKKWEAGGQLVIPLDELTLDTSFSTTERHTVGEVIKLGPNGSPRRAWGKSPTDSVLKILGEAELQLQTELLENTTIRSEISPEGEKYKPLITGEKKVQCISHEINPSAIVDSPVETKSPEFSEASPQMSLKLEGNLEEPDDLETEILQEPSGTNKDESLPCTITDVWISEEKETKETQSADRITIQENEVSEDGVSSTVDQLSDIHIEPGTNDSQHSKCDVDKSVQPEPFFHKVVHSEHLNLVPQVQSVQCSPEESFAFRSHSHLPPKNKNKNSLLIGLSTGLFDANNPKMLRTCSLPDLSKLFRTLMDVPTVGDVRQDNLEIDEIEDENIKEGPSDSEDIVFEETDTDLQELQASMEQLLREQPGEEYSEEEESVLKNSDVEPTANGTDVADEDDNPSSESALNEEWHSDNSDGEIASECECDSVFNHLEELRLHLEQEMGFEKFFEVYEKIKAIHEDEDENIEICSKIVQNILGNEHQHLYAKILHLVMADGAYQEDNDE
Sequence of UniProt Q13233 (whole entry, looked up): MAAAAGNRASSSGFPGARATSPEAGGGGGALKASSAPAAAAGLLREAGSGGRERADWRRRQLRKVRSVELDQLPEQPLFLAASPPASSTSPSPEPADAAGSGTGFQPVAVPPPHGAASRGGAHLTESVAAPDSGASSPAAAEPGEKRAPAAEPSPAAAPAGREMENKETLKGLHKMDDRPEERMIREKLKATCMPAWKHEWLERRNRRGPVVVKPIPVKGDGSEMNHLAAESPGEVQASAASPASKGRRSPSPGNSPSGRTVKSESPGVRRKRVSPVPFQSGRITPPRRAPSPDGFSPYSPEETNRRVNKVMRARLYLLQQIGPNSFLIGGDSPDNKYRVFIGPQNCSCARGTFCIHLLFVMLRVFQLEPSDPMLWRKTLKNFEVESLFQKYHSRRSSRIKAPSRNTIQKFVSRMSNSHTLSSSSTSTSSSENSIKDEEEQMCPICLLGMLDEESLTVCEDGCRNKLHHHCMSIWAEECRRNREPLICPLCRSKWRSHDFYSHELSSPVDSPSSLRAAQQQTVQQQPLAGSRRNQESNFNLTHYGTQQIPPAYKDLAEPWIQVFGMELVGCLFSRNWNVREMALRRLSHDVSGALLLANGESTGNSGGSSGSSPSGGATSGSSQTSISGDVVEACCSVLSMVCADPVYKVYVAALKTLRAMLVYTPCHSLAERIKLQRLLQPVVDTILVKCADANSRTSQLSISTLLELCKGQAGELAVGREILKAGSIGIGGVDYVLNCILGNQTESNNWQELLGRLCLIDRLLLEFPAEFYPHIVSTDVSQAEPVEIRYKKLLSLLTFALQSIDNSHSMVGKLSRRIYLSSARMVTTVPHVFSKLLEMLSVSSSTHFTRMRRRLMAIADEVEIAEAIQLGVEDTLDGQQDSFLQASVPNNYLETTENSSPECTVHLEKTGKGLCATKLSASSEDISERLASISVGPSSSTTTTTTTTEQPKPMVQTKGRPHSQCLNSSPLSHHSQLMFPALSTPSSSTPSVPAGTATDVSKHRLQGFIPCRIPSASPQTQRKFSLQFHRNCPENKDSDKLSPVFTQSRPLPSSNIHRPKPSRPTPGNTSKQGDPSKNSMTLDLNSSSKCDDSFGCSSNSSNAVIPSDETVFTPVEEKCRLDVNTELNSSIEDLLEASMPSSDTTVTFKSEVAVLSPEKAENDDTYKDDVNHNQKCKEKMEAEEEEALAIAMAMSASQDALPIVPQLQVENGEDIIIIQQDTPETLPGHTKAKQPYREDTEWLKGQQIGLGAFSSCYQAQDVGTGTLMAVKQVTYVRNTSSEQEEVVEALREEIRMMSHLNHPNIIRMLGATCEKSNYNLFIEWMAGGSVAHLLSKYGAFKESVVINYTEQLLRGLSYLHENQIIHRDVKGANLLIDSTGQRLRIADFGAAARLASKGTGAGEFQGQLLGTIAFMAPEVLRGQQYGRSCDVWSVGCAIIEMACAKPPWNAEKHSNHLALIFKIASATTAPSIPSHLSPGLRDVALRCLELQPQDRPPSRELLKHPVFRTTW
Sequence of UniProt Q15759 (whole entry, looked up): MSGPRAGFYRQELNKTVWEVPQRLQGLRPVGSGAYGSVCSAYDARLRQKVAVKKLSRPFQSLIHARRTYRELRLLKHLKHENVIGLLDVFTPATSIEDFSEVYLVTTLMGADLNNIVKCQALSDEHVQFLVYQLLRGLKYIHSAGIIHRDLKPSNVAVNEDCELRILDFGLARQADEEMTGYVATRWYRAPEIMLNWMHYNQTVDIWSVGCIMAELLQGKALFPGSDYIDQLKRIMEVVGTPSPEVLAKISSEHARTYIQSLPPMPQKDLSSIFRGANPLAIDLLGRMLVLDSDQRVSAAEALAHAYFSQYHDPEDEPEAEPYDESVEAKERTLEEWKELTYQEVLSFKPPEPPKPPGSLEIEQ
Sequence of UniProt P78368 (whole entry, looked up): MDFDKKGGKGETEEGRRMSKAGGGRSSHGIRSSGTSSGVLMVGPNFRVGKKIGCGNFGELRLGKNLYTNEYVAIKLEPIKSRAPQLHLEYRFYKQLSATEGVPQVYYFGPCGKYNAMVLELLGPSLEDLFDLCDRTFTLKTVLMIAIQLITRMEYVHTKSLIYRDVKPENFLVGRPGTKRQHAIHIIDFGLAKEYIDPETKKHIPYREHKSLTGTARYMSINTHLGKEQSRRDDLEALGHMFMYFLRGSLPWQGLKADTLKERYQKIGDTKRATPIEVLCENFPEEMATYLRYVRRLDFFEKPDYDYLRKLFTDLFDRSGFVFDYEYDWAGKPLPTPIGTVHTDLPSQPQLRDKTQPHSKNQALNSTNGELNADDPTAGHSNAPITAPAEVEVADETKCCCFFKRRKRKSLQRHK

Study 1 — effect on: enzyme activity; mode: inhibitor; concentration: 10 µM
Target: Calcium/calmodulin-dependent protein kinase type II subunit alpha (CAMK2A, Homo sapiens, UniProt Q9UQM7)
Sequence of UniProt Q9UQM7 (whole entry, looked up): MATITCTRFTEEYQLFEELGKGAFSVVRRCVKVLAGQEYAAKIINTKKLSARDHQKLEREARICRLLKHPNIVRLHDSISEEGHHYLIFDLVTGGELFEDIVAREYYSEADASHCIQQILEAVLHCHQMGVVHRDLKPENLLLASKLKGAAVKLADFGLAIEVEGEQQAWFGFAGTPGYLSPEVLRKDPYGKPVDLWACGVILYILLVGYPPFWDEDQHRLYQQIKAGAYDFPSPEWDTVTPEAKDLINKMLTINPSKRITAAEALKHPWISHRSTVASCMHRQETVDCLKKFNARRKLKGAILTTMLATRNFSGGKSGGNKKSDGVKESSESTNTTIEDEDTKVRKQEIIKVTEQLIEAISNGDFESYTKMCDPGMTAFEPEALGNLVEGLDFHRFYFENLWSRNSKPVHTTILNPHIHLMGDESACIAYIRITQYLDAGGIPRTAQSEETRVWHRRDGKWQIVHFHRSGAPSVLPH
| SMILES | inhibition [%] |
| --- | --- |
| CCO/N=C(\C(=O)N[C@@H]1C(=O)N2C(C(=O)O)=C(Sc3nc(-c4cc[n+](C)cc4)cs3)CS[C@H]12)c1nsc(NP(=O)(O)O)n1 | 2 |
| COc1cc(/C=C/C(=O)N2CCN(CC(=O)N3CCCC3)CC2)cc(OC)c1OC | 1 |
| CN1C(CCl)Nc2cc(Cl)c(S(N)(=O)=O)cc2S1(=O)=O (stereo not drawn) | -4 |
| OC[C@H]1O[C@@H](Oc2cc(O)ccc2/C=C/c2cc(O)cc(O)c2)[C@H](O)[C@@H](O)[C@@H]1O | -6 |
| O=C[C@H](O)[C@H]1OC(=O)[C@@H](O)[C@H]1O | 4 |
| CC=CC(=O)C1=C(C)C=CCC1(C)C | 39 |
| N[C@H](C(=O)O)[C@@H]1CC(Cl)=NO1 | -16 |
| COCC(=O)O[C@]1(CCN(C)CCCc2nc3ccccc3[nH]2)CCc2cc(F)ccc2[C@@H]1C(C)C | 0 |

Study 2 — concentration: 1 µM
SMILES: CCOCCn1cc(C(=O)Nc2ccc(-n3nc(-c4cccnc4)cc3C(F)(F)F)cn2)ccc1=O
| target | test | remaining binding [%] |
| --- | --- | --- |
| Epidermal growth factor receptor (EGFR, Homo sapiens, UniProt P00533, del746-750) | cell-free assay, competition with immobilised ligand | 92 |
| Proto-oncogene tyrosine-protein kinase Src (SRC, Homo sapiens, UniProt P12931) | cell-free assay, competition with immobilised ligand | 90 |
| Aurora kinase C (AURKC, Homo sapiens, UniProt Q9UQB9) | cell-free assay, competition with immobilised ligand | 88 |
| Receptor-type tyrosine-protein kinase FLT3 (FLT3, Homo sapiens, UniProt P36888, D835V/ITD) | cell-free assay, competition with immobilised ligand | 86 |
| RAC-beta serine/threonine-protein kinase (AKT2, Homo sapiens, UniProt P31751) | cell-free assay, competition with immobilised ligand | 100 |
| Cyclin-dependent kinase 13 (CDK13, Homo sapiens, UniProt Q14004) | cell-free assay, competition with immobilised ligand | 92 |
| Casein kinase I isoform alpha-like (CSNK1A1L, Homo sapiens, UniProt Q8N752) | cell-free assay, competition with immobilised ligand | 100 |
| Mitogen-activated protein kinase kinase kinase 4 (MAP3K4, Homo sapiens, UniProt Q9Y6R4) | cell-free assay, competition with immobilised ligand | 59 |
| Mitogen-activated protein kinase kinase kinase kinase 2 (MAP4K2, Homo sapiens, UniProt Q12851) | cell-free assay, competition with immobilised ligand | 76 |
| Dual specificity mitogen-activated protein kinase kinase 1 (MAP2K1, Homo sapiens, UniProt Q02750) | cell-free assay, competition with immobilised ligand | 86 |
| Serine/threonine-protein kinase PLK1 (PLK1, Homo sapiens, UniProt P53350) | cell-free assay, competition with immobilised ligand | 100 |
| Mitogen-activated protein kinase 11 (MAPK11, Homo sapiens, UniProt Q15759) | cell-free assay, competition with immobilised ligand | 80 |
| Mitogen-activated protein kinase kinase kinase 15 (MAP3K15, Homo sapiens, UniProt Q6ZN16) | cell-free assay, competition with immobilised ligand | 100 |
| LIM domain kinase 2 (LIMK2, Homo sapiens, UniProt P53671) | cell-free assay, competition with immobilised ligand | 100 |
| Glycogen synthase kinase-3 beta (GSK3B, Homo sapiens, UniProt P49841) | cell-free assay, competition with immobilised ligand | 86 |
| Cyclin-dependent kinase 19 (CDK19, Homo sapiens, UniProt Q9BWU1) | competition binding | 95 |
| Epidermal growth factor receptor (EGFR, Homo sapiens, UniProt P00533, L858R) | cell-free assay, competition with immobilised ligand | 90 |
| BMP-2-inducible protein kinase (BMP2K, Homo sapiens, UniProt Q9NSY1) | cell-free assay, competition with immobilised ligand | 95 |
| Tyrosine-protein kinase ABL1, non-phosphorylated (ABL1, Homo sapiens, UniProt P00519, F317L) | cell-free assay, competition with immobilised ligand | 100 |
| Fibroblast growth factor receptor 1 (FGFR1, Homo sapiens, UniProt P11362) | cell-free assay, competition with immobilised ligand | 100 |
| Myotonin-protein kinase (DMPK, Homo sapiens, UniProt Q09013) | cell-free assay, competition with immobilised ligand | 100 |
| Hepatocyte growth factor receptor (MET, Homo sapiens, UniProt P08581, Y1235D) | cell-free assay, competition with immobilised ligand | 100 |
| Mitogen-activated protein kinase kinase kinase 1 (MAP3K1, Homo sapiens, UniProt Q13233) | cell-free assay, competition with immobilised ligand | 84 |
| Inhibitor of nuclear factor kappa-B kinase subunit alpha (CHUK, Homo sapiens, UniProt O15111) | cell-free assay, competition with immobilised ligand | 100 |
| Hepatocyte growth factor receptor (MET, Homo sapiens, UniProt P08581, M1250T) | cell-free assay, competition with immobilised ligand | 96 |

Study 3 — effect on: enzyme activity; mode: inhibitor; concentration: 0.5 µM; baseline: control
Compound: CCN(CC)C(=O)c1ccc(Nc2nc(OCC3CCCCC3)c3[nH]cnc3n2)cc1
| target | remaining activity |
| --- | --- |
| Tyrosine-protein kinase FRK (FRK, Homo sapiens, UniProt P42685) | 116% |
| Mitogen-activated protein kinase kinase kinase 5 (MAP3K5, Homo sapiens, UniProt Q99683) | 96.9% |
| Serine/threonine-protein kinase Nek1 (NEK1, Homo sapiens, UniProt Q96PY6) | 53.1% |
| Angiopoietin-1 receptor (TEK, Homo sapiens, UniProt Q02763) | 95.4% |
| Tyrosine-protein kinase Lck (LCK, Homo sapiens, UniProt P06239) | 39.8% |
| Serine/threonine-protein kinase TBK1 (TBK1, Homo sapiens, UniProt Q9UHD2) | 25.4% |
| Mitogen-activated protein kinase 3 (MAPK3, Homo sapiens, UniProt P27361) | 101% |
| Fibroblast growth factor receptor 1 (FGFR1, Homo sapiens, UniProt P11362) | 72.8% |
| Macrophage-stimulating protein receptor (MST1R, Homo sapiens, UniProt Q04912) | 103% |
| MAP kinase-activated protein kinase 2 (MAPKAPK2, Homo sapiens, UniProt P49137) | 99.2% |
| Dual specificity mitogen-activated protein kinase kinase 2 (MAP2K2, Homo sapiens, UniProt P36507) | 94% |
| Fibroblast growth factor receptor 3 (FGFR3, Homo sapiens, UniProt P22607) | 66.9% |
| Casein kinase I isoform gamma-2 (CSNK1G2, Homo sapiens, UniProt P78368) | 59.8% |

Study 4 — cell line: A-375; concentration: 100 µM; time: 18 h
| SMILES | viability [%] |
| --- | --- |
| Cn1c(NCCN(CCO)CCCc2ccc([N+](=O)[O-])cc2)cc(=O)n(C)c1=O | 92.1 |
| O=C(O)c1ccc(S(=O)(=O)N(Cl)Cl)cc1 | 89.9 |
| O=C(O)c1cc(/N=N/c2ccc(O)c(C(=O)O)c2)ccc1O | 91.3 |
| CCOC(=O)CC(=O)N1CCSC1COc1ccccc1OC (stereo not drawn) | 103 |
| CO/N=C1\CN(c2nc3c(cc2F)c(=O)c(C(=O)O)cn3C2CC2)CC1CN (stereo not drawn) | 76.1 |
| O=S(=O)(O)Oc1ccc(C(c2ccc(OS(=O)(=O)O)cc2)c2ccccn2)cc1 | 104 |
| COC1C(OC(N)=O)C(O)C(Oc2ccc3c(O)c(NC(=O)c4ccc(O)c(CC=C(C)C)c4)c(=O)oc3c2C)OC1(C)C (stereo not drawn) | 89.9 |
| C[N+](C)(C)CC(O)CC(=O)[O-] (racemic) | 95.5 |
| CCCCCCCCCCCCCCCC(=O)OC/C=C(C)/C=C/C=C(C)/C=C/C1=C(C)CCCC1(C)C | 71.1 |
| C[C@H](Cn1cnc2c(N)ncnc21)OCP(=O)(O)O | 95.8 |
| Cc1nnc(SCC2=C(C(=O)O)N3C(=O)[C@@H](NC(=O)Cn4cnnn4)[C@H]3SC2)s1 | 102 |
| Cc1cc(O)c2c(c1)C(=O)c1cccc(O)c1C2=O | 102 |
| COC(=O)c1ccc2c(c1)NC(=O)/C2=C(\Nc1ccc(N(C)C(=O)CN2CCN(C)CC2)cc1)c1ccccc1 | 101 |
| O=C(N/N=C/c1ccc([N+](=O)[O-])o1)c1ccc(O)cc1 | 26.8 |
